Experimental data of several laboratories.
Protocols differ between the studies behind these lines. Numbers after ± are the reported error.

`Cc1c2c(cc3oc(=O)cc(-c4ccc(O)cc4)c13)C(=O)c1cccc(O)c1C2=O` — result for “DPPH radical scavenging”: 49.3% (100 µg/mL).
Under “DPPH radical scavenging”, `Cc1csc(NC(=O)CN2CCC(O)CC2)n1` is recorded as 13.5% (0.1 mM, 20 min).
For `N#C/C(=C\c1cn(-c2ccccc2)nc1-c1ccc(Br)cc1)c1nc2ccccc2[nH]1`, “DPPH radical scavenging” read 64.3 ± 1.95% (100 µg/mL, 45 min).
Under “DPPH radical scavenging”, `O=C(CN1CCC(O)CC1)Nc1nccs1` is recorded as 23.5% (0.2 M, 1 h).
Under “DPPH radical scavenging”, `N#C/C(=C\c1cn(-c2ccccc2)nc1-c1ccc(Cl)cc1)c1nc2ccccc2[nH]1` is recorded as 52.5 ± 1.87% (100 µg/mL, 45 min).
Under “DPPH radical scavenging”, `CCOC(=O)Cc1csc(NC(=O)CCN2CCC(O)CC2)n1` is recorded as 20.6% (0.2 M, 1 h).
For `COc1ccc(-c2nn(-c3ccccc3)cc2/C=C(\C#N)c2nc3ccccc3[nH]2)cc1`, “DPPH radical scavenging” read 53.8 ± 2.13% (100 µg/mL, 45 min).
Under “DPPH radical scavenging”, `CCCCCCCCCCCCCCc1sc(NC(=O)CCN2CCC(O)CC2)nc1-c1ccccc1` is recorded as 16.1% (0.2 M, 1 h).
`N#C/C(=C\c1cn(-c2ccccc2)nc1-c1ccccc1)c1nc2ccccc2[nH]1` — result for “DPPH radical scavenging”: 50.3 ± 1.48% (100 µg/mL, 45 min).
`Cc1cc(O)cc2c1C(=O)c1c(cc3oc(=O)cc(-c4ccc(O)cc4)c3c1O)C2=O` — result for “DPPH radical scavenging”: 50.7% (100 µg/mL).
For `Cc1ccc(NC(=O)C2C(=O)C(c3ccccc3)c3ccc4c(c32)C(=O)c2ccccc2C4=O)cc1` (stereo not drawn), “DPPH radical scavenging” read 39.1% (100 µg/mL).
`CCCCSc1nnc(-c2ccc(N)cc2)o1` — result for “DPPH radical scavenging”: 89.9% (80 µg/mL).

A few entries again:
Under “DPPH radical scavenging”, `CCCCCCCCCCCCCCc1sc(NC(=O)CCN2CCC(O)CC2)nc1-c1ccccc1` is recorded as 16.1% (0.2 M, 1 h).
